Results from different studies.
A part holds a random share of what one study measured. Substitutions count along the parent as printed.

Study 1 — technique: protein-binding microarray; molecule type: double-stranded DNA, one strand shown; matrix: in vitro; concentration: 250 nM; setting: 60-bp whole probe; added: salmon DNA 0.4 mg/ml; reference: random background probes; direction: higher = stronger binding; measurement: log fluorescence; shared flanks, not repeated: GCCTAGCAC … GTCTTGATTCGCTTGACGCTGCTG
Target: Interferon regulatory factor 7, full length, phosphomimetic (IRF7, Homo sapiens, UniProt Q92985, residues 1-503, S101K/S471D/S472D/S475D/S476D/S477D/S483D/S484D/S487D)
UniProt Q92985, sequence (whole entry, unmodified, looked up): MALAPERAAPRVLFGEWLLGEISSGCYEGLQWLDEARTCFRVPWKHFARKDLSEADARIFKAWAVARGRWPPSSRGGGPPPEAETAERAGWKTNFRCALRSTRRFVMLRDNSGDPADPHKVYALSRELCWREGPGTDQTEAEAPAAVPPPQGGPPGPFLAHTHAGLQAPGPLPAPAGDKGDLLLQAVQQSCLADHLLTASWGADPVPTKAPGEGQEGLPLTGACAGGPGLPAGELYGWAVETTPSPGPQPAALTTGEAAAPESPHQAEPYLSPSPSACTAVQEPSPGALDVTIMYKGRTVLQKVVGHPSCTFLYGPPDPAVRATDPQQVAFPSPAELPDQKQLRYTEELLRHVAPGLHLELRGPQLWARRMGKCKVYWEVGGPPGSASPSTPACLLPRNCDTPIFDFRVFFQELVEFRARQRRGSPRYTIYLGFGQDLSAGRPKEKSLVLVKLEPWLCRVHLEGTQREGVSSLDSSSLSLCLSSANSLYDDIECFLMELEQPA
Sequence = TTAGGACCGCTACTGCTTTAGTGCTAG; value = 0.0326 z-score
Sequence = TTAGCTTTCGGTTCCGGTTAGTGCTAG; value = 3.69 z-score
Sequence = GACGGTATCGGGCCTGGGGACGTGCTA; value = -0.442 z-score
Sequence = GACGGTTTTGGTTTCGGGACGTGCTAG; value = 7.18 z-score
Sequence = TTAGAACTGAGACTGGTTTAGTGCTAG; value = -0.0434 z-score
Sequence = TCAGAAATCAGTATGTTACTGTGCTAG; value = -0.382 z-score
Sequence = AGAGAATGTGGAGAAATAGGGTGCTAG; value = -0.463 z-score
Sequence = TTAGGTTTCGGAACTGGGTTAGTGCTA; value = 6.17 z-score
Sequence = TCATGTGTACATCTCTCACTGTGCTAG; value = -0.0563 z-score
Sequence = TGCTGTGTGCATCTATCTTAGTGCTAG; value = -1.29 z-score
Sequence = GACGGACTGGGTCTCGTGACGTGCTAG; value = -0.547 z-score

Study 2 — technique: protein binding microarray; molecule type: double-stranded DNA, one strand shown; matrix: in vitro; concentration: not given; reference: not given; direction: higher = stronger binding; measurement: E-score
Target: Histone acetyltransferase KAT6A, winged helix 2, GST fusion (KAT6A, Homo sapiens, UniProt Q92794, residues 85-181)
Setting: 8-mer, flanks averaged, mean of 2 arrays, mostly near background
Construct (chain): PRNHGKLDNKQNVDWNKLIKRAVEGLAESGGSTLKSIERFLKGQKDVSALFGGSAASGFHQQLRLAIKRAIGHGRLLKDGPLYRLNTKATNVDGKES
Sequence = CATTCGGG; value = 0.0862
Sequence = ACAGGGGA; value = -0.0378
Sequence = GCACTTAC; value = -0.228
Sequence = GTGAGACA; value = -0.122
Sequence = ATCATTAG; value = -0.0334
Sequence = ACATGCTA; value = -0.135
Sequence = ACCTACAC; value = -0.147
Sequence = GGCGCACC; value = 0.212
Sequence = GACGTGGC; value = -0.188
Sequence = AACCCAGC; value = 0.0204
Sequence = AGATTCAG; value = 0.12
Sequence = AGAGTACG; value = -0.0924
Sequence = GACGTAGC; value = -0.081
Sequence = ATGAGACG; value = -0.162
Sequence = TGGGAGAA; value = 0.000995
Sequence = GCGTCTCA; value = -0.0255
Sequence = ACGGAATG; value = -0.217
Sequence = AGGATATG; value = -0.0634

Study 3 — target: CCND1, cyclin fold, Cln2 fusion (human); technique: yeast growth competition, sequencing; matrix: yeast; setting: strong parent motif; reference: not given; direction: higher = stronger binding; measurement: normalised enrichment score
Starting sequence: E2F1 docking peptide (human); PPVKRRLDFETDH; partner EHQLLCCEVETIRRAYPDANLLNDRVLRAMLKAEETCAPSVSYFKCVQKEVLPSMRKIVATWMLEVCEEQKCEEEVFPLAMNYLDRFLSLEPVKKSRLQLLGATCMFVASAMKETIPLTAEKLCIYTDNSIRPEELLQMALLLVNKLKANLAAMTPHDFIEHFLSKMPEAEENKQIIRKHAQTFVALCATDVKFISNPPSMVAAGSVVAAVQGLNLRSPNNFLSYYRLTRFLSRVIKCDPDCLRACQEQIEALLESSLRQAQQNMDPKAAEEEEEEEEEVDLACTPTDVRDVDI
Change = PWVKRRLDFETDH [P2W]; value = 0.762
Change = PPVKRRLDFCTDH [E10C]; value = 2.47
Change = PPVKRRRDFETDH [L7R]; value = -0.0371
Change = PPVKRRLEFETDH [D8E]; value = 2.25
Change = PPVKRRLDFENDH [T11N]; value = 3.3
Change = PPVKRRLQFETDH [D8Q]; value = 1.86
Change = PAVKRRLDFETDH [P2A]; value = 1.85
Change = PPNKRRLDFETDH [V3N]; value = -0.148
Change = PHVKRRLDFETDH [P2H]; value = 1.62
Change = PPVCRRLDFETDH [K4C]; value = 4.77
Change = PPVKRRTDFETDH [L7T]; value = 0.225
Change = PPVKRTLDFETDH [R6T]; value = 1.15
Change = PPVKRRLIFETDH [D8I]; value = 2.61
Change = PPVKRRLDAETDH [F9A]; value = 0.107
Change = PPCKRRLDFETDH [V3C]; value = 2.3
Change = PPFKRRLDFETDH [V3F]; value = -0.458
Change = PGVKRRLDFETDH [P2G]; value = 2.64
Change = PPVKARLDFETDH [R5A]; value = 0.391
Change = PPVKRRLDFLTDH [E10L]; value = 1.06
Change = PPVKRMLDFETDH [R6M]; value = 1.33
Change = PPVKSRLDFETDH [R5S]; value = -0.152
Change = PPVKRRLDFMTDH [E10M]; value = 1.79
Change = PPVKRRLDFEIDH [T11I]; value = 2.74
Change = PPVKRRLDFKTDH [E10K]; value = 1.53
Change = PPVQRRLDFETDH [K4Q]; value = 3.29

Study 4 — technique: DHFR PCA, deep sequencing; matrix: yeast; added: (+)-ABA 58 µM; reference: wild-type fitted maximum; direction: higher = stronger binding; measurement: relative binding score
Target: ABI1, truncated, D143A, DHFR fusion (Arabidopsis thaliana)
Setting: methotrexate growth selection, single substitutions
Starting sequence: PYL1, truncated, DHFR fusion (Arabidopsis thaliana); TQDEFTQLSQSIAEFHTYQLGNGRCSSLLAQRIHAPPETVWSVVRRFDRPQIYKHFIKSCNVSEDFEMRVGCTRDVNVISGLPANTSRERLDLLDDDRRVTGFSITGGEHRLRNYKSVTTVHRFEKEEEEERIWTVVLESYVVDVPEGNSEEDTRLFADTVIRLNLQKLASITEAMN
Change = Y18V; value = 78%
Change = V143Y; value = -1.37%
Change = T101P; value = -10.8%
Change = D95K; value = 17%
Change = R32A; value = 81.6%
Change = G148A; value = 60.2%
Change = E147W; value = 70.1%
Change = P36K; value = 84.8%
Change = L166G; value = 3.79%
Change = I105W; value = -9.56%
Change = D75L; value = 87.2%
Change = D75C; value = 84.7%
Change = D153Y; value = 5.8%
Change = T73L; value = 83.1%
Change = S150M; value = 45.3%
Change = V70G; value = 38.2%
Change = G148I; value = 21.9%
Change = L138N; value = 18.2%

Study 5 — technique: RNA Bind-n-Seq; molecule type: RNA; matrix: in vitro; concentration: 200 nM; setting: whole 134-nt RNA, ends assumed; added: 150 mM KCl; reference: input library; direction: higher = stronger binding; measurement: log2 enrichment
Target: Ras GTPase-activating protein-binding protein 1, full length (G3BP1, Homo sapiens, UniProt Q13283)
UniProt Q13283, sequence (whole entry, looked up): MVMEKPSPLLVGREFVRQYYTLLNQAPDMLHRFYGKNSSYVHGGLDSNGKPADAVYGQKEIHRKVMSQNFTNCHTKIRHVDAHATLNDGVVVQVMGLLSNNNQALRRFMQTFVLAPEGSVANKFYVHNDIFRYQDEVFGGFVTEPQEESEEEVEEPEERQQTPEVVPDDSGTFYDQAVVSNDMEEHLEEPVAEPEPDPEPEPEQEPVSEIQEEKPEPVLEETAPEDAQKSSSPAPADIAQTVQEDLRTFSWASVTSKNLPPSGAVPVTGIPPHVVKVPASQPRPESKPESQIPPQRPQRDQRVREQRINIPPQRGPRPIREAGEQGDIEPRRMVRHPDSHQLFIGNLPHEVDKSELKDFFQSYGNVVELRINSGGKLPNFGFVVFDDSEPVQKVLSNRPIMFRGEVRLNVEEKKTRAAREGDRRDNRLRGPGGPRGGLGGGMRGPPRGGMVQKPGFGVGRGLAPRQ
Shared flanks, not repeated: GGGAGUUCUACAGUCCGACGAUC … UGGAAUUCUCGGGUGUCAAGG
Sequence = UGUUGAUGCUGUAAUUGCUGAACUUAAAAAGCAGUCUAAACCUGUGACCACCCCUGAAGAAAUUGCACAGGUAAGGACUUAACAUGUUAC; value = 1.03
Sequence = UUGGAGGUGGAUUUUGUUUAUUUUUUUAGCUCAUUUCCAGGGGUGGGAAUUUUUUUUUAAUAUGUGUCAUGAAUAAAGUUGUUUUUGAAA; value = -0.895
Sequence = CUGUGCUACACAUCGUAUGUACCGAAUCGGGGAAAAAGGGGAAAAAGGGGUUUUUUUGGGGAAAGUAUUAUGUUACGCCGUUCGGAUCUG; value = 0.132
Sequence = CACAGACAACACGCACCCACACAGACACAGAGGGAAGGGGUUGGGAUGGGGACAGGGUGCACAGCAGGGCGGGGGAGGACCCCAGCCCCU; value = 1.8
Sequence = AGUCCUGUGCUACACAUCGUAUGUACCGAAUCGGGUUUUUGGGUUUUUGGGAAAGGGAAAGUAUUAUGUUACGCCGUUCGGAUCUGCACU; value = -0.488
Sequence = CCUGUGCUACACAUCGUAUGUACCGAAUCGGGAAAAAAAGGGAAAAAAAGGGAAAAAGGGAAAGUAUUAUGUUACGCCGUUCGGAUCUGC; value = -0.981
Sequence = UUCUAUUUCUUUCCUUAAUGUUUUUUUCUUCCCUACUGUUUUAUCCUCCCUUUGCUUUGGAAGGAUAUUGCUGCAUAUCGAGCUAAAGGA; value = 0.0166

Study 6 — technique: protein-binding microarray; molecule type: double-stranded DNA, one strand shown; matrix: in vitro; concentration: not given; direction: higher = stronger binding; measurement: E-score
Target: Protein C-ets-1 (ETS1, Homo sapiens, UniProt P14921, residues 1-441, K379A, full length assumed)
UniProt P14921, sequence (whole entry, unmodified, looked up): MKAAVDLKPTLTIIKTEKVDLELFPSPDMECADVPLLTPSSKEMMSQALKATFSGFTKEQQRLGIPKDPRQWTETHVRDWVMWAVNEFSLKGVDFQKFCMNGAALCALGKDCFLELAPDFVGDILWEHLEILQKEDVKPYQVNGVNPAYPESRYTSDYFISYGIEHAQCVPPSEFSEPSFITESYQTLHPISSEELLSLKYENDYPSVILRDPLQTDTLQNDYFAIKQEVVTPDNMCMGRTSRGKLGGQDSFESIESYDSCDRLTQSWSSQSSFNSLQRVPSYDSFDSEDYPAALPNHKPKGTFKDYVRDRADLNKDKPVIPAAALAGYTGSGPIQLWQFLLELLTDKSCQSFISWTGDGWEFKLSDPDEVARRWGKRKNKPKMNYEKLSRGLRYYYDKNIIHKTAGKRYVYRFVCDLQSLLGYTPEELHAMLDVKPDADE
Setting: k-mer, scored over probes, only values ≥0.25
Sequence = CACGCCGG; value = 0.255
Sequence = AGTGTCGG; value = 0.349
Sequence = TATCCGGA; value = 0.362
Sequence = CCGACATC; value = 0.272
Sequence = ACACGTAA; value = 0.285
Sequence = AAAGCGAC; value = 0.277
Sequence = GTCACTCA; value = 0.268
Sequence = GTCCGGAC; value = 0.337
Sequence = CGTTCCCC; value = 0.322

Study 7 — technique: RNA Bind-n-Seq; molecule type: RNA; matrix: in vitro; concentration: 20 nM; setting: 6-mer, flanks averaged, single round; added: 150 mM KCl; reference: input library; direction: higher = stronger binding; measurement: 6-mer enrichment (R)
Target: TAR DNA-binding protein 43, full length, His tag (TARDBP, Homo sapiens, UniProt Q13148, residues 1-414)
Sequence = UUGUAG; value = 0.834
Sequence = CGCUCC; value = 0.623
Sequence = CUGGCG; value = 1.44
Sequence = AGAACC; value = 0.705
Sequence = CCAGUU; value = 0.633
Sequence = AAGUCC; value = 0.602
Sequence = AGAGGG; value = 4.3
Sequence = ACUAGU; value = 0.646
Sequence = UAGUAA; value = 0.637
Sequence = GGGUCG; value = 3.72
Sequence = AUAUCC; value = 0.558

Study 8 — technique: RNA Bind-n-Seq; molecule type: RNA; matrix: in vitro; concentration: not given; setting: RNA with constant flanks, ends assumed; reference: input RNA pool; direction: higher = stronger binding; measurement: bound/input enrichment
Target: RING finger protein unkempt homolog, zinc fingers 1-6, GST-SBP tag (UNK, Homo sapiens, UniProt Q9C0B0, residues 30-357)
Shared flanks, not repeated: GGGAGUUCUACAGUCCGACGAUC … CAACAGAGGAUUGAGCAUCA
Residues (chain): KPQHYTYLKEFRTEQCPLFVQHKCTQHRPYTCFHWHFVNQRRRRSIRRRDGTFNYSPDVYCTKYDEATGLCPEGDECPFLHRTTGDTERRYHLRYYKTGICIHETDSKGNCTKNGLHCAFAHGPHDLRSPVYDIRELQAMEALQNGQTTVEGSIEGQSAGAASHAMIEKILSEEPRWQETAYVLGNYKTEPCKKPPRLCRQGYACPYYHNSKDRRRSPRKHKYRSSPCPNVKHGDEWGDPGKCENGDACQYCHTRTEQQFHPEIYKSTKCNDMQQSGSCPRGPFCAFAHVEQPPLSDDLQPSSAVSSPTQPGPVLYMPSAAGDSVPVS
Sequence = ACAAGAAUGCAGAAGGCUGGAAUUCCUUGUCCAACAGUUGUACUGCUUAAGAAGCACAUUUCCGUUAUGUCUUUCAUUGGCCAUGAUCAAGUUCCAGCCCCUAAAUUAAAAGAAGUAAAG; value = 0.196 ratio
Sequence = CAACUGUCAUUACCCCUUAACUUCCUGGGAACUGUAUAUAGAGAGACAAGACAAGCACUCACCGAUAUGAACACCUUGUUUACUCUGCUCAAGGUAGACACACGGAUUAAAGACAAAGUG; value = 0.46 ratio
Sequence = GUUAAUCAUAGCUUGGAUUUACAGCCAGUUACUUACUCAGAACCUGCAUUUUGGUGUUCGACCGCAUAUUAUGAAUUAAAUCAGAGGGUUGGAGAAACCUUCCAUGCAUCACAGCCCUCA; value = 0.445 ratio
Sequence = UGUUUAUCCUGGCCUGCUCAGGUUUCAUUCUUACAGAACCCAGGACUCCUUGCCCAGGAACCGUACCACCCACAAUGAGCUGGGUCCUUCCUGCCAAUCACUUAUUAAGAACAUGCCUUA; value = 0.147 ratio
Sequence = UGUUUUGCACGGAUGGUUGGAAAUAGUGGAAAAGUCAUUGGAAUUGAUCACAUUAAAGAACCCGCCGAUGACUCAAUAACUAAUGUCAAAAAGGAUGACCCAAUGCUCCUGUCCUCGGGG; value = 0.0576 ratio
Sequence = GUUGGAGAUACACAAGUGGUUGUUUUUAAGCAUGAAAAAGAAGAUGGUGCCAUUUCUACUACCGUUCUUCGAGGUUCUACAGACAAUCUGAUGGAUGACAUAGAAAGGGCAGUAGAUGAU; value = 0.649 ratio
